Measured values of several laboratories.
Parts stem from different laboratories: compare values within a part only. Changes are numbered by the printed parent chain.

Series 1 — target: UBE2B UBC core domain (UniProt P63146); technique: yeast two-hybrid; sample: yeast; setting: mostly zero background; relative to: not given; reading: higher = stronger interaction
Sequence of UniProt P63146 (whole entry, looked up): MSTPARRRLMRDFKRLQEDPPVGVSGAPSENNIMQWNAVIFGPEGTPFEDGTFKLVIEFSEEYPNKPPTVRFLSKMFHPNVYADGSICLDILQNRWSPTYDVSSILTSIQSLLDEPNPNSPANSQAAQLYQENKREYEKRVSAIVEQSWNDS
B1: PJA2 RING domain (UniProt O43164); chain DHTAIGQEQCCPICCSEYIKDDIATELPCHHFFHKPCVSIWLQKSGTCPVCRRHFPPAVIEA
B2: RNF11 RING domain (UniProt Q9Y3C5); chain RDGSEKKIRECVICMMDFVYGDPIRFLPCMHIYHLDCIDDWLMRSFTCPSCMEPVDAALLSS
B3: MARCHF2 RING domain (UniProt Q9P0N8); chain RLLSTVIRALDTPSDGPFCRICHEGANGECLLSPCGCTGTLGAVHKSCLEKWLSSSNTSYCELCHTEFAVEKRPRPLTEWL
B4: NHLRC1 RING domain (UniProt Q6VVB1); chain MREAEISLLECKVCFEKFGHRQQRRPRNLSCGHVVCLACVAALAHPRTLALECPFCRRACRGCDTSD
B5: RNF17 RING domain (UniProt Q9BXT8); chain SQPWGAAEIQCTRCGRRVSRSSGHHCELQCGHAFCELCLLMTEECTTIICPDCEVATAVNTRQR
B6: TRIM68 RING domain (UniProt Q6AZZ1); chain LVEAIVEEVACPICMTFLREPMSIDCGHSFCHSCLSGLWEIPGESQNWGYTCPLCRAPVQPRNLRP
B7: TRIM32 RING domain (UniProt Q13049); chain NLDALREVLECPICMESFTEEQLRPKLLHCGHTICRQCLEKLLASSINGVRCPFCSKITRITSLTQ
Molecule | lacZ reporter activity
B1 (PJA2 RING domain) | 0
GSEEEEIPFRCFICRQAFQNPVVTKCRHYFCESCALEHFRATPRCYICDQPTGGIFNPA (RNF113B RING domain (UniProt Q8IZP6)) | 0
B2 (RNF11 RING domain) | 0
B3 (MARCHF2 RING domain) | 0
B4 (NHLRC1 RING domain) | 0
B5 (RNF17 RING domain) | 0
B6 (TRIM68 RING domain) | 0
KITELNPHLMCALCGGYFIDATTIVECLHSFCKTCIVRYLETNKYCPMCDVQVHKTRPLL (PCGF2 RING domain (UniProt P35227)) | 0
MEEMEEELKCPVCGSFYREPIILPCSHNLCQACARNILVQTPESESPQSHRAAGSGVSDY (TRIM9 RING domain (UniProt Q9C026)) | 0
B7 (TRIM32 RING domain) | 0

Series 2 — technique: RNA Bind-n-Seq; form: RNA; sample: in vitro; concentration: 1 µM; setting: whole 134-nt RNA, ends assumed; with: 150 mM KCl; relative to: input library; reading: higher = stronger binding
Target: Ras GTPase-activating protein-binding protein 1, RRM domain (G3BP1, Homo sapiens, UniProt Q13283)
Sequence of UniProt Q13283 (whole entry, looked up): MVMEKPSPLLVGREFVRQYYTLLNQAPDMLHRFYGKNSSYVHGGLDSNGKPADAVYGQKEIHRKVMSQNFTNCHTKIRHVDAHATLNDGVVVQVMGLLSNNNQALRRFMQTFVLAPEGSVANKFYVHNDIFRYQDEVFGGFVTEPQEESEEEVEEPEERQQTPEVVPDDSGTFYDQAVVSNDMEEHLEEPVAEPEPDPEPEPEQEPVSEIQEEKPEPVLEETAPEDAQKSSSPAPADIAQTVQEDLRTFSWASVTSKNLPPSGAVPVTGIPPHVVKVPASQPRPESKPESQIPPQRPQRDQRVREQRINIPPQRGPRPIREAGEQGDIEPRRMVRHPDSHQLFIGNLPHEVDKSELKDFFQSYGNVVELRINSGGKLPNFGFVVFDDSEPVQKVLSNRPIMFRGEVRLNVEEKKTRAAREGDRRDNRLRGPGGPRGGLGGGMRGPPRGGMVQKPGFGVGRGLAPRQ
Shared flanks, not repeated: GGGAGUUCUACAGUCCGACGAUC … UGGAAUUCUCGGGUGUCAAGG
Oligonucleotide | log2 enrichment
UCCUGUGCUACACAUCGUAUGUACCGAAUCGGGUUUUUUGGGUUUUUUGGUUUUUUGGGGAAAGUAUUAUGUUACGCCGUUCGGAUCUGC | -0.0879
AGUCCUGUGCUACACAUCGUAUGUACCGAAUCGGGGUGGGGUUUUUGGGGAAAGGGGAAAGUAUUAUGUUACGCCGUUCGGAUCUGCACU | 0.88
CACAGACAACACGCACCCACACAGACACAGAGGGAAGGGGUUGGGAUGGGGACAGGGUGCACAGCAGGGCGGGGUAGAACCCCAGCCCCU | -0.471
UGGCCCUGGUGGCAUGCGGGGAGGAAGAGGUGGCCUCAUGGAUCGUGGUGGUCCCGGUGGAAUGUUCAGAGGUAGCCGUGGUGGAGACAG | 1.46
GCUGGAAGUAAAAACAAAUGGAAAUGCUUCGGAUAGUGGCAGGGGUGGGGGUUGCUAAGGAAAGGGUGGGAUGGGAGUGGGUAAAGAGUU | 1.59
CCUGUGCUACACAUCGUAUGUACCGAAUCGGGCCCCCCGGGCCCCCCGGGGCCCCCCGGGGAAAGUAUUAUGUUACGCCGUUCGGAUCUG | -0.686
UGGCCCUGGUGGCAUGCGGGGAGGAAGAGGUGGCCUCAUGGAUCGUGGUGAUCCCGGUGGAAUGUUCAGAGGUGGCCGUGGUGGAGACAG | 0.314
CACAGACAACACGCACCCACACAGACACAGAGGGAAGGGGUUGGGGUGGGGACAGGGUGCACAGCAGGGCGGGGUAGGACCCCAGCCCCU | 0.217
AUCAUUUCAUUUUUAUAAUUAUACAUUAGACAUUGGCACUUGUGUAAAACUGUCCCUGCAGAUUGAGCAGGAAGUAAAAACAAAUGGAAA | -0.319

Series 3 — target: CCNA2, cyclin fold, Cln2 fusion (human); technique: yeast growth competition, sequencing; sample: yeast; setting: strong parent motif; relative to: not given; reading: higher = stronger binding
Starting sequence: CDC25A docking peptide (human); PPHRRRLLFACSP
Substitution | normalised enrichment score
DPHRRRLLFACSP [P1D] | 2.03
PPHRRRLLFACSC [P13C] | 2.67
PPHRRRLLFACCP [S12C] | 1.99
PPHRRRLLFAYSP [C11Y] | 2.22
PPHNRRLLFACSP [R4N] | 2.13
PPHRRRLLFACTP [S12T] | 1.92
PGHRRRLLFACSP [P2G] | 3.27
PPHRRRCLFACSP [L7C] | 1.69
PPHRRLLLFACSP [R6L] | 2.21
PPHRRVLLFACSP [R6V] | 1.46
PPHRRRLFFACSP [L8F] | 2.71
PPRRRRLLFACSP [H3R] | 3.48
PPHRRRLLDACSP [F9D] | 0.108
PPMRRRLLFACSP [H3M] | 3.57
PPHRRRLLFACHP [S12H] | 2.08
PPHRQRLLFACSP [R5Q] | 1.11

Series 4 — technique: protein binding microarray; form: double-stranded DNA, one strand shown; sample: in vitro; concentration: not given; relative to: not given; reading: higher = stronger binding
Target: Histone acetyltransferase KAT6A, winged helix 2, GST fusion (KAT6A, Homo sapiens, UniProt Q92794, residues 85-181)
Setting: 8-mer, flanks averaged, mean of 2 arrays, mostly near background
Construct (chain): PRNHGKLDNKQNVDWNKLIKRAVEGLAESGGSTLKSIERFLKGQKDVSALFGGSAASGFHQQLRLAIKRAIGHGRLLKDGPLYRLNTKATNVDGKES
Oligonucleotide | E-score
AAGGGAAT | -0.182
GCAACGGC | 0.23
CTTCAGTC | 0.124
AGTGTTCG | -0.0375
CGAAAATC | 0.108
ACGCCTCG | 0.0803
TATTCGGA | 0.139
AGGCCTAA | 0.012
ATCGCGTA | -0.108
GCATTTCC | 0.0982
AGCATACC | -0.0599
GGATGGTA | 0.0145
GAAGCACC | -0.024
ACAGCGAG | 0.0329
AGCCCAGA | 0.0804
ATCCGAAT | 0.0879
CATTCTAG | -0.0557
CTAGTGTA | -0.212
GGGTCACC | -0.0368
GAAAGAGA | 0.0744
GGGATCTA | -0.157
CTAGCCTA | -0.0895
ACCTGGTA | -0.228
CAGTATAA | 0.0679
AATAGCTC | -0.308

A few entries again (series 4):
Oligonucleotide | E-score
AGTGTTCG | -0.0375
CGAAAATC | 0.108
ACGCCTCG | 0.0803
TATTCGGA | 0.139
AGGCCTAA | 0.012
ATCGCGTA | -0.108
GCATTTCC | 0.0982
AGCATACC | -0.0599
